# Experimental data collected from several papers.
# ± marks the error that the study gave.
Structure (SMILES),cell line,observed,method,time,notes,with,IC50
C=CC(=O)N1CCC[C@@H](n2nc(-c3ccc(Oc4ccccc4)cc3)c3c(N)ncnc32)C1,"TMD8, parental",cell viability,CellTiter-Glo,4 days,,,< 0.001 µM
C=CC(=O)Nc1ccc(F)c(-c2ncnc3[nH]cc(C(=O)OCC)c23)c1,mouse naive B cells,CD69 induction,,,BTK dependent,anti-IgM,> 10 µM
CNC(NN=Cc1ccc([N+](=O)[O-])o1)=[S+][Au-][Cl],CAKI-1,cell growth or viability,resazurin,,,,15.5 µM
NC(=O)c1ccc(-c2ccccc2Cl)c2c3c([nH]c12)CCC(N)C3 (stereo not shown),NCI-H446,cell growth or viability,,96 h,,,0.0375 µM
CC(C)c1ccc(N(C)c2ccc3c(c2)OCC[C@H]3CNc2cnccc2C(=O)O)cc1,NCI-H446,cell viability,CellTiter-Glo,7 days,,,0.119 µM
COCC1CN(C2CCN(c3cc(OC)c(Nc4ncc(Br)c(Nc5ccc6c(c5P(C)(C)=O)OCCO6)n4)cc3C)CC2)C1,Ba/F3 EGFR Del19/T790M/C797S,cell growth,CellTiter-Glo,3 days,,,0.025 µM
CCOc1cncc(-c2ccc(NC(=O)C3(c4ccnc(NS(=O)(=O)C5CC5)n4)CCOCC3)nc2)n1,TK-10,cell proliferation,CellTiter-Glo,72 h,renal cancer,,5.14 µM
CNS(=O)(=O)Nc1nccc(Cc2c(C)c3ccc(Oc4ncccc4F)cc3oc2=O)c1F,HCC2218,cell viability,,7 days,,,0.231 µM
O=C(Nc1ccc(F)c(C(=O)Nc2ccc3[nH]ncc3c2)c1)Nc1cc(C(F)(F)F)ccc1F,KM12,cell growth or viability,ATP luminescence,72 h,,,41.8 µM
C=CCc1c(O)cc2c(c1O)C(=O)CC(c1ccc(O)cc1)O2 (stereo not shown),normal pig cell line,cytotoxicity,MTT,48 h,,,> 120 µM
C[C@@H](c1cccc2ccccc12)N1C(=O)C2=Nc3ccccc3CN2C1=S,healthy human PBMCs,cell viability,resazurin,,,,2.7 ± 1.3 µM
CCC(=CCc1c(O)cc2c(c1O)C(=O)CC(c1c(O)cccc1OC)O2)CC (stereo not shown),normal pig cell line,cytotoxicity,MTT,48 h,,,98.6 ± 3.4 µM
Cc1cc(C(=O)Nc2ccc3[nH]ncc3c2)ccc1NC(=O)Nc1cc(C(F)(F)F)ccc1F,KM12,cell growth or viability,ATP luminescence,72 h,,,> 50 µM
C[C@H](c1ccccc1)N1C(=O)C2=Nc3cc([N+](=O)[O-])ccc3CN2C1=S,healthy human PBMCs,cell viability,resazurin,,,,2.5 ± 0.8 µM
CCn1nc(Cl)c2c1-c1cnc(N)c(c1)O[C@H](C)c1cc(F)ccc1-c1nn(C)cc1C2,Ba/F3 EML4-ALK variant 1 S1206F,cell viability,,,,,0.00128 µM
C=CC(=O)N1CC2C(=O)N(CCN(C)C)c3c(c4cc(Cl)c(-c5c(O)cccc5F)nc4n(-c4c(C)ccnc4C(C)C)c3=O)N2CC1C (stereo not shown),A-427,cell growth or viability,,,,,> 10 µM
